Measurements from different studies.
Parts stem from different laboratories: compare values within a part only. Changes are numbered by the printed parent chain.

Sample 1
Target: BATF3, bZIP domain (human)
Method: DHFR protein complementation
Sample: yeast
Notes: single substitutions, most at no-binding floor
Baseline: wild-type JUN-FOS pair
Reading: higher = stronger binding
Starting sequence: JUN, bZIP domain (human); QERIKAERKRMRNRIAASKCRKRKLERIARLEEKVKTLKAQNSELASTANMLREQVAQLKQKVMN; partner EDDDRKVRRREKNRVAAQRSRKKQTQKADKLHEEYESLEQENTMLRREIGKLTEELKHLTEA
Substitution | binding fitness
A29L | 0.0638 natural log
L52M | 0.074 natural log
K39C | 0.0772 natural log
Q41D | 0.14 natural log
L52A | -0.351 natural log

Sample 2
Target: RNA binding protein fox-1 homolog 2, RRM domain, GST-SBP tag (RBFOX2, Homo sapiens, UniProt O43251-10, residues 100-194)
Method: RNA Bind-n-Seq
Form: RNA
Sample: in vitro
Concentration: 365 nM
Notes: natural RNA segment, single round, ends assumed
Baseline: no-protein control
Reading: higher = stronger binding
Constant ends, left off below: GGGAGUUCUACAGUCCGACGAUC … UGGAAUUCUCGGGUGCCAA
Residues (chain): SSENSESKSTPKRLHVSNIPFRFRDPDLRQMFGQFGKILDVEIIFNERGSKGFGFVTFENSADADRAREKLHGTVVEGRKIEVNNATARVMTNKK
Strand | RBNS enrichment (R)
GAGAGCCCUGCCGAUGUUGGGUUCUCCUCCUAUUGGGGAAACUUGAUCACAGAUGGAACACGUGCAGAUUGAUUGAUGAGUGCUGUGGAGAAAGCAGCAGCGUAGCGGGA | 0.782
UUAUAUUAAAAAGAUCUGUGGGAAAAUAAAGCCAGCCCUUGUUUUGGAUGUGUUGUUUCUGAAACCCAAGUUUAUGAAUUUUUUGUUUUUCUUUUUUGAGACAGGGUUUC | 2.7
CUAUGUGACUUGCGCUUAAUCCAAUAUUUUGCCUUUUUUCUAUAUCAAAAAACCUUUACAGUUAGCAGGGAUGUUCCUUACCAAGGAUUUUUAGCCCCAAAUCUCUCAUA | 0.912
CCUUGUAAAUACCCGCUGCUGCGGUGGCCCUGAGCGAGGAACAAGCCAUUCGGACCCGACCGAUGUAAAUACAGCCGCCCGUCCGCCCGCCUUCCUCCCGGGCUCCCCGG | 0.264
GUUCCGGAGCACCCUUGUGAAGAAAAUGUGUUCUUUCUUCCGAUGGGUCCAGUUGCAGUGGCCAAUUUCCUGAAACCUGUCUUUUCCUAAGCGCUGACCGUGAACUCUGC | 0.581
CCACUAACUGCUUGCUGGGGACAGGCAAACCCGGACUGUGCAAAGUUACUAGCCCGUAGCUCUUGGGCUGCUCCACAUGGCUCCUUACGGCCGGCAAGAAUGGAUGUAAA | 1.43
GGAGCAUAGCAUGUGGGUUUCUUUGUAGGAGGGCACUUAGGUCCCUUGCACACAGCCAUUCCCUAGCGCAAAGGUGCUGGUCACACUGCUUACUGAGGCGCUGAAGAGGC | 1.86
AGCUUGGGGUGUGACUGUGGGGAGGACUCCAUCCACCUCAUCACUGGACUGCAUGGGGAGGCAGCAGAGCGGGGUCCCCUCUGUGCUUCGACUACUGCUCCUGUGGCAGG | 1.23

Sample 3
Target: CCNF, cyclin fold, Cln2 fusion (human)
Method: yeast growth competition, sequencing
Sample: yeast
Notes: strong parent motif
Baseline: not given
Reading: higher = stronger binding
Starting sequence: CDKN1B docking peptide (human); PSACRNLFGPVDH
Substitution | normalised enrichment score
V11H | 7.12
D12M | 7.09
C4N | 4.32
P10S | 7.07
L7D | 0.387
C4V | 5.84
R5F | 0.0278
G9H | 4.85

Mixed results
Molecule | target | assay | test system | setting | scale | measurement | value
PhoQ, residues 284 288 289 292 302 303 ASHLAV | PhoP, residues 12 14 15 18 19 GHCSL (Escherichia coli, UniProt P23836) | Sort-seq, refers to: YFP reporter | E. coli | PhoQ-PhoP variant library, with: 10 µM Mg2+ | baseline: high Mg2+ state, higher = stronger signaling | fold induction | 11.4

Repeated from above (sample 2):
Strand | RBNS enrichment (R)
GGAGCAUAGCAUGUGGGUUUCUUUGUAGGAGGGCACUUAGGUCCCUUGCACACAGCCAUUCCCUAGCGCAAAGGUGCUGGUCACACUGCUUACUGAGGCGCUGAAGAGGC | 1.86
UUAUAUUAAAAAGAUCUGUGGGAAAAUAAAGCCAGCCCUUGUUUUGGAUGUGUUGUUUCUGAAACCCAAGUUUAUGAAUUUUUUGUUUUUCUUUUUUGAGACAGGGUUUC | 2.7
